Assay results collected from several papers.
Protocols differ between the studies behind these lines. ± marks the error that the study gave.
Cell line: HEK-293T

Structure (SMILES) | effect on | technique | time | IC50
COc1ccc(N2C(=O)C=CC2=O)cc1 | cell growth or viability | MTT | 24 h | > 100 µg/mL
O=C(Nc1ccc([N+](=O)[O-])cc1Cl)c1cc(F)ccc1O |  | CCK-8 | 24 h | 12.1 µM
Cc1ccc(C(C)C)cc1.[Cl-].[Cl-].[Ru+2].c1ccc(P(=Nc2cccc3cccnc23)(c2ccccc2)c2ccccc2)cc1 | cell growth or viability | MTT | 24 h | 2.2 µM
Clc1ccc2ccc3[n+](c2c1)[Ir-3]12([c]4ccccc4-3)([c]3ccccc3-c3ccc4ccc(Cl)cc4[n+]31)[n+]1ccccc1-c1cccc[n+]12.F[P-](F)(F)(F)(F)F | cell growth | MTT | 72 h | 3.6 ± 0.5 µM
O=C(O)c1ccc([P+]([Au-][Cl])(c2ccccc2)c2ccccc2)cc1 | cell growth or viability | XTT | 72 h | 31 µM
[Cl][Au+][Cl].[O-][Cl+3]([O-])([O-])[O-].c1ccc(P(=NCc2ccccn2)(c2ccccc2)c2ccccc2)cc1 | cell growth or viability | MTT | 74 h | 30.5 µM
O=C([O][Ti+2][O]C(=O)c1ccc([P+]([Au-][Cl])(c2ccccc2)c2ccccc2)cc1)c1ccc([P+]([Au-][Cl])(c2ccccc2)c2ccccc2)cc1.c1cc[cH-]c1.c1cc[cH-]c1 | cell growth or viability | XTT | 24 h | 39 µM
Cc1ccc(C(C)C)cc1.O=C(N=P(c1ccccc1)(c1ccccc1)c1ccccc1)c1ccccn1.[Cl-].[Cl-].[Ru+2] | cell growth or viability | MTT | 24 h | 2.8 µM
C1=CCC=C1.[Cl][Pd-2]1([Cl])[N+](=P(c2ccccc2)(c2ccccc2)C2C=CC=C2)Cc2cccc[n+]21.[Fe+2] | cell growth or viability | MTT | 74 h | 15 µM
O=C(N=P12CN3CN(CN(C3)C1)C2)c1cccc[c]1[Au]([Cl])[Cl] | cell growth or viability | MTT | 24 h | > 125 µM
[Cl][Pd-2]1([Cl])[N+](=P(c2ccccc2)(c2ccccc2)c2ccccc2)Cc2cccc[n+]21 | cell growth or viability | MTT | 74 h | 45 µM
Cc1ccc(C(C)C)cc1.[Cl-].[Cl-].[Fe+2].[Ru+2].c1cc[cH-]c1.c1ccc(P(=NCc2ccccn2)(c2ccccc2)[c-]2cccc2)cc1 | cell growth or viability | MTT | 24 h | 114 µM

Repeated from above:
Structure (SMILES) | effect on | technique | time | IC50
C1=CCC=C1.[Cl][Pd-2]1([Cl])[N+](=P(c2ccccc2)(c2ccccc2)C2C=CC=C2)Cc2cccc[n+]21.[Fe+2] | cell growth or viability | MTT | 74 h | 15 µM
O=C(N=P12CN3CN(CN(C3)C1)C2)c1cccc[c]1[Au]([Cl])[Cl] | cell growth or viability | MTT | 24 h | > 125 µM
